Measurements pooled from the literature.
Each line is one published result; not all experiments were run side by side. Values joined by “and” are separate records of one study, mostly repeats; a detail may differ. ± marks the error that the study gave.
U2AF2: U2AF2 148-342 (Homo sapiens, UniProt P26368)
Chain of UniProt P26368 (whole entry, looked up): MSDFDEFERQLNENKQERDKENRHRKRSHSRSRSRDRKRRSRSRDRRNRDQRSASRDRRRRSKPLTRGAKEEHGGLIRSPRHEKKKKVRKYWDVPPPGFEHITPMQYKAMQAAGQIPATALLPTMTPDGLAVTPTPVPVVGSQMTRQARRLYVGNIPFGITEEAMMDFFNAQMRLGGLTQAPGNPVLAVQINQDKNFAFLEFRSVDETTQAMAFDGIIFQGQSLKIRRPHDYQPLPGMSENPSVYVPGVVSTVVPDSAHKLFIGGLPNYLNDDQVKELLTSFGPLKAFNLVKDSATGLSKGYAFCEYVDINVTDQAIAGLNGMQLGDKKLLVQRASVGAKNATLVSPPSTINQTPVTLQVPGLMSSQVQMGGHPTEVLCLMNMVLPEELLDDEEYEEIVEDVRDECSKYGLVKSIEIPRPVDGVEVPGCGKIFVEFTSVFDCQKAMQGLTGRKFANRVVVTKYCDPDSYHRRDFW
B1: human thioredoxin; sequence looked up; chain VKQIESKTAFQEALDAAGDKLVVVDFSATWCGPCKMIKPFFHSLSEKYSNVIFLEVDVDDCQDVASECEVKCMPTFQFFKKGQKVGEFSGANKEKLEATINELV
B2: human calnexin; sequence looked up; chain HDGHDDDVIDIEDDLDDVIEEVEDSKPDTTAPPSSPKVTYKAPVPTGEVYFADSFDRGTLSGWILSKAKKDDTDDEIAKYDGKWEVEEMKESKLPGDKGLVLMSRAKHHAISAKLNKPFLFDTKPLIVQYEVNFQNGIECGGAYVKLLSKTPELNLDQFHDKTPYTIMFGPDKCGEDYKLHFIFRHKNPKTGIYEEKHAKRPDADLKTYFTDKKTHLYTLILNPDNSFEILVDQSVVNSGNLLNDMTPPVNPSREIEDPEDRKPEDWDERPKIPDPEAVKPDDWDEDAPAKIPDEEATKPEGWLDDEPEYVPDPDAEKPEDWDEDMDGEWEAPQIANPRCESAPGCGVWQRPVIDNPNYKGKWKPPMIDNPSYQGIWKPRKIPNPDFFEDLEPFRMTPFSAIGLELWSMTSDIFFDNFIICADRRIVDDWANDGWGLKKAADGAAEPGVVGQMIEAAEERPWLWVVYILTVALPVFLVILFCCSGKKQTSGMEYKKTDAPQPDVKEEEEEKEEEKDKGDEEEEGEEKLEEKQKSDAEEDGGTVSQEEEDRKPKAEEDEILNRSPRNRKPRRE
Chain of UniProt P13393 (whole entry, looked up): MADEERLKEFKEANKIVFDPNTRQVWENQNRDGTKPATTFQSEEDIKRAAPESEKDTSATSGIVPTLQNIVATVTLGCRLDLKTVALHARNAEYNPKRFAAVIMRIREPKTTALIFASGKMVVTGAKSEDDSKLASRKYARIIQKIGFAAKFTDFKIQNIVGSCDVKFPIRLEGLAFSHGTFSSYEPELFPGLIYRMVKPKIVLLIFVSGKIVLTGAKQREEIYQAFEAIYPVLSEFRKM

PSMD7 (human)  log2 fold change (CYB5R4 knockout human cells; PP4 interaction, 3xFLAG-PP4C IP-MS; concentration not given; baseline: CYB5R4 KO over parental): -0.89
CCCCCGCGCCTACGCAAGTTTTCCGGATCCGTCCATCAAGTCAATCGGTCC (dsDNA; 5'-amino-C6 primer)  Kd (SPT15 full length assumed (Saccharomyces cerevisiae, UniProt P13393); array; double-stranded DNA, one strand shown; TBP alone): 1.25 ± 0.06 nM
UAGGUUUGG (ssRNA)  Kd (U2AF2; sequencing of bound RNA; RNA; motif only): 4840 nM
B1 (human thioredoxin)  log2 fold change (PP6C (human); co-immunoprecipitation, IP-MS; CYB5R4 knockout cells; concentration not given; baseline: CYB5R4 knockout over parental): 0.74
VMRLQSETSV  binding intensity (construct, MBP fusion, human SCRIB, PDZ 3-4; automated holdup; peptide, purified PDZ protein; concentration not given, unit not given; baseline: biotin control resin, higher = stronger binding): 0.346
B2 (human calnexin)  log2 fold change (PP6C (human); co-immunoprecipitation, IP-MS; CYB5R4 knockout cells; concentration not given; baseline: CYB5R4 knockout over parental): -0.07
Nisin  nucleoid perimeter (Bacillus subtilis; ATCC 6633; concentration not given): 3.84 µm and 4.32 µm and 3.98 µm
maraviroc  mRNA level (qPCR; HIV-infected mice, frontal cortex; i.p., 120 mg/kg twice daily, 3 weeks post infection; baseline: HIV-infected untreated mice, decrease): 1.83 fold
GSGAGSETSV  binding intensity (construct, MBP fusion, human SCRIB, PDZ 3-4; automated holdup; peptide, purified PDZ protein; concentration not given, unit not given; baseline: biotin control resin, higher = stronger binding): 0.299
Peginesatide  mRNA fold induction (UT7/EPO; RT-qPCR, item: MAFF; concentration not given, 90 min; baseline: vehicle): 3 fold
GGAUUGGUG (ssRNA)  Kd (U2AF2; sequencing of bound RNA; RNA; motif only): 1810 nM
MTVCNASQRQAHAQATAVSL  selectivity ratio (H322; phage binding; peptide; baseline: targeting over control phage): 0.71 ± 0.23
colistin  MIC (Escherichia coli; broth microdilution; clinical isolate RKI-No_314/16): 8 µg/mL

For quick reference, copied from above:
GGAUUGGUG (ssRNA)  Kd (U2AF2; sequencing of bound RNA; RNA; motif only): 1810 nM
